# Published values from different studies.
# Protocols differ between the studies behind these lines. ± marks the error that the study gave.
# Target: Alpha-1A adrenergic receptor (ADRA1A, Homo sapiens, UniProt P35348)
# Residues used in one study (P35348 1-466): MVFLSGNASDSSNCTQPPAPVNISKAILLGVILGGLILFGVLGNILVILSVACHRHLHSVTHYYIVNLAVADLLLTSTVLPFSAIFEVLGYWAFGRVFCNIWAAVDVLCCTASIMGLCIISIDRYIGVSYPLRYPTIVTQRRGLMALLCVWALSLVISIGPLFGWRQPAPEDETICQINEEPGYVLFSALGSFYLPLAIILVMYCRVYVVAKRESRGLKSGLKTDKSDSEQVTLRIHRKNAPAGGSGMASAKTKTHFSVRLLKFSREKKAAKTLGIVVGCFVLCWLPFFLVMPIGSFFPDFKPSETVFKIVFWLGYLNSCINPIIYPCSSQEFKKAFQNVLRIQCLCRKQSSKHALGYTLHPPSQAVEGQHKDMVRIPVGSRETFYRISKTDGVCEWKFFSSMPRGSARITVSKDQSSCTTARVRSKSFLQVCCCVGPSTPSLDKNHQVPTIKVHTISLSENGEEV
SMILES,assay,test system,conditions,scale,endpoint,value
Cc1cc2oc(=O)cc(Cn3ccnc3)c2cc1O,"intracellular Ca2+ mobilization, agonist",COS-7,500 µM,baseline: 3 µM ionomycin,agonist activity,4.9 ± 1.05%
CNC[C@H](O)c1cccc(OCCOCCOCC#Cc2cccc(Cn3c(-c4ccccc4)c(-c4ccccc4)c4c(=N)n([C@H]5CC[C@H](O)CC5)cnc43)c2)c1,"agonist, immunoblot, item: phospho-ERK1/2",HEK293 stably transfected with ADRA1A,10 µM,,time to peak ERK phosphorylation,10 min
CC(C)Cn1c(SCC(=O)N2CCc3ccccc3C2)nc2cc(Cl)ccc2c1=O,"ligand displacement, radioligand",,10 µM,,inhibition,-15%
COc1ncc2nc(C)n(Cc3ncc(S(N)(=O)=O)cc3F)c2c1-c1ccccc1,"antagonist, cell-based",,10 µM,,inhibition,-0.457%
Cn1ccc2cc(-n3c(=O)[nH]c4sc5c(c4c3=O)CCCC5)ccc21,"cell-free assay, radioligand",,10 µM,,inhibition,6%
COc1ccc2c(CNc3ccc(C)cc3)cc(=O)oc2c1,"intracellular Ca2+ mobilization, agonist",COS-7,500 µM,baseline: 3 µM ionomycin,agonist activity,29.2 ± 2.07%
COc1ccc(C(=O)Nc2c(-c3cccs3)nc3ccccn23)cc1,"ligand displacement, radioligand",,10 µM,,inhibition,< 50%
Cc1ccc2c(Cn3ccnc3)cc(=O)oc2c1C,"intracellular Ca2+ mobilization, agonist",COS-7,500 µM,baseline: 3 µM ionomycin,agonist activity,2.2 ± 0.81%
O=C1c2sc(-c3ccc(N4CCC(CO)CC4)nc3F)nc2CCN1c1cccnc1,"ligand displacement, radioligand",,1 µM,,inhibition,0%

# Repeated from above:
SMILES,assay,test system,conditions,scale,endpoint,value
COc1ccc2c(CNc3ccc(C)cc3)cc(=O)oc2c1,"intracellular Ca2+ mobilization, agonist",COS-7,500 µM,baseline: 3 µM ionomycin,agonist activity,29.2 ± 2.07%
